Results gathered from unrelated publications.
Every numbered part comes from another study and shows a few of its results, in no order. Substitutions count along the parent as printed.

Study 1
Target: CCNB2, cyclin fold, Cln2 fusion (human)
Technique: yeast growth competition, sequencing
Sample: yeast
Notes: weak parent motif
Relative to: not given
Direction: higher = stronger binding
Parent: CDKN1B docking peptide (human); PSACRNLFGPVDH; partner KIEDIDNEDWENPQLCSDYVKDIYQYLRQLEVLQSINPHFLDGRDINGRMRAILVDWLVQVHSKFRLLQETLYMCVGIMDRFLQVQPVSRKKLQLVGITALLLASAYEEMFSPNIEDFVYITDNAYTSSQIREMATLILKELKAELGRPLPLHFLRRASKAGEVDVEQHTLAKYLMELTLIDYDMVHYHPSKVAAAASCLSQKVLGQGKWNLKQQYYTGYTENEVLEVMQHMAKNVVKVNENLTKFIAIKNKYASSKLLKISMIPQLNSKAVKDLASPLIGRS
Change	normalised enrichment score
PSACRRLFGPVDH [N6R]	-0.00869
PSACRNLFGPVDW [H13W]	0.334
PSACRNLNGPVDH [F8N]	0.0879
PSACRWLFGPVDH [N6W]	0.19
PSACRNLFGAVDH [P10A]	-0.134
PSACRNLFGPGDH [V11G]	0.222
PSACTNLFGPVDH [R5T]	-0.58
PIACRNLFGPVDH [S2I]	0.0355
PSACRNLFGPVDL [H13L]	-0.152
PSACRNLSGPVDH [F8S]	0.349

Study 2
Target: RNA binding protein fox-1 homolog 2, RRM domain, GST-SBP tag (RBFOX2, Homo sapiens, UniProt O43251-10, residues 100-194)
Technique: RNA Bind-n-Seq
Molecule type: RNA
Sample: in vitro
Concentration: 365 nM
Notes: natural RNA segment, single round, ends assumed
Relative to: no-protein control
Direction: higher = stronger binding
Constant ends, left off below: GGGAGUUCUACAGUCCGACGAUC … UGGAAUUCUCGGGUGCCAA
Construct (chain): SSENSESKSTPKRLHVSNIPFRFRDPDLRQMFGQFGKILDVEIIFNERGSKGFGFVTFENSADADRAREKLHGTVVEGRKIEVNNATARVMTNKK
Strand	RBNS enrichment (R)
CUCACCGCCCACAACCCUAUCGCUGGAGCUGUGAGAGGUUUUCUACCAGCCAGGUCUUAUGUUCCCAGGCCCUGUCUUCUGGAAAGCAUUACUGGGAAGUGGACACUAGG	0.303
CAGGGCACAGUUAGGCCUGGAUGUUUGCCUGGUCCGUGAGAUGCCGCGGGUCCUGUUUCCUUACUGGGGAUUUCAGGGCUGGGGGUUCAGGGAGCAUUUCCUUUUCCUGG	0.409
UGUGCCACUGUUUGCUUCAACAGUAUAUCCUAAUAAGCCUCACCUAUUUAAUCCAAUGAGUUUUAAAUCUAAAUCUCAUUCCCUUCUUCUUUCCCUACCUUUUUUUUCUU	1.91
GAGGAGGGUUUAUAUACCCCAUGACCCUGCGGCUUCUUGGCGCCUCCUGCCCAUGAGGAUCACAUCCUGUCUCUCCUUGCUUCCAUCUCUCAUCACUGCCCUUGGACUUC	0.549
AUGUCAUUUGCCUUGCUCACUUGUAACCCCUUCCUCAGGUCCAAGAGAAUGGGAGGAGGGUCAUGUUGAAGUGUAGCCACUGGAACUUUCUUGCAUUUAUGGAGUUGCUU	2.17
UUAUAGCAACUAUAAAGUAUCAAUAAUUUUAAAUACUCAUCUCUCUUUUACUAAGAAGGGAUUUUUAAAUAUGGUGUCUACCUGGUAUCUCUCUCCCAAUAAGAAGCAGG	0.632
GUUUGGAAAUGAUGUACAUCUUGACCAUUGCACUGUUGGAACUUAGUCCCUUCUGUUUUAAAGGAGGCAUUUUGGAUAUUAAGCAACUUAAUUUGAAAGAACUUCUUUUG	0.289
CUGCAGGGGCUGUUGCAGCAGUCAGUCCCAGGAAGCCACAGCGCUUGUAGGAUCUGCUAGGACCCUGCAGCUGUGCUGCCGCCACCUCUGCUCCAGAGUGUCCCAGCCAA	0.304
GUCAAGAAUUCCAGAGAAGGCUGCUCCUAAAAUGUCUACUUGCAGCCCAAUACCAGAGCAUAAACUAUCCAUUCUGGGGUCUGGCUUUAGAAAUCAUCUUUGUGGGAAGA	0.964
UGACAGUUUAAACUGCUAACAGAUUGAGAGAUCCCUGCUCAGAAACCUCACCUUUAGUGCUUUCUUUAAAGAAGCUGAGGGGUGAAGUUUGCUUACUGAUGUAUCUAUUU	0.189
AGGGAAAGGUGUUUGCUGGAGUGACUUCCGUGCAGAGUGGUCUAUAGAGAAACUACAGCUCUGCCCAUUGUCCUGGGGUCCUGGAACUUCGUCCAGUGUUAAGAACUGAG	0.825
UCCCGCUGCCCACCAACACCAACACACACACACCUCUAAGCUGCUGGCCGAAGAUGUCACCAAGGCCAAAGACACAGUAUUAUGAAGGUUUGGAAACCCCUCUCCUCACC	1.02

Study 3
Target: Interferon regulatory factor 5, full length, phosphomimetic (IRF5, Homo sapiens, UniProt Q13568-2, residues 1-514, K96S/S451D/S453D/S456D/S462D)
Technique: protein-binding microarray
Molecule type: double-stranded DNA, one strand shown
Sample: in vitro
Concentration: 250 nM
Notes: 60-bp whole probe
With: salmon DNA 0.4 mg/ml
Relative to: random background probes
Direction: higher = stronger binding
Constant ends, left off below: GCCTAGCAC … GTCTTGATTCGCTTGACGCTGCTG
Strand	log fluorescence [z-score]
TCACTTTTCATTTTCTTACTGTGCTAG	2.54
GCCAAACACCCACATTCACCGTGCTAG	-0.0937
GATGGTTTCGACTATCGGGACGTGCTA	8.23
TCACTTTACTTTCTTTTACTGTGCTAG	3.6
ACCGATTTCCTTCACCCACTGTGCTAG	0.673
CTTTCCTTTGCTTTCTCCCAGTGCTAG	2.05
GGATCTTGCAGATGTCGCTGGGTGCTA	-0.222
TTATATATCGGGTTTCGATTAGTGCTA	7.07
TCACATATATATATGAAACTGTGCTAG	1.08
TTAGGTTTCGGGACTGGGTTGGTGCTA	5.84
TTAGGTTTCCTTCTCATTTAGTGCTAG	1.35
TTAGGTATCGGGTATTGGTTAGTGCTA	4.02
TTAGGTCTCCTACTTCTTTAGTGCTAG	-0.0588
GACGATTTCCGGACTGGAGACGTGCTA	-0.0124
TTAGGACTGCTTATCGTTTAGTGCTAG	0.317
GTAGATATCGGGACTGGATTAGTGCTA	1.12

Single results of other studies
Molecule	target	assay	system	conditions	scale	endpoint	value
PhoQ, residues 284 288 289 292 302 303 QWGLFV	PhoP, residues 12 14 15 18 19 TPLRH (Escherichia coli, UniProt P23836)	Sort-seq, refers to: YFP reporter	E. coli	PhoQ-PhoP variant library, with: 10 µM Mg2+	relative to: high Mg2+ state, higher = stronger signaling	fold induction	0.972

Some of these lines once more (study 3):
Strand	log fluorescence [z-score]
TTAGGTTTCGGGACTGGGTTGGTGCTA	5.84
TTAGGTTTCCTTCTCATTTAGTGCTAG	1.35
TTAGGTATCGGGTATTGGTTAGTGCTA	4.02
TTAGGTCTCCTACTTCTTTAGTGCTAG	-0.0588
GACGATTTCCGGACTGGAGACGTGCTA	-0.0124
TTAGGACTGCTTATCGTTTAGTGCTAG	0.317
GTAGATATCGGGACTGGATTAGTGCTA	1.12
